Experimental data from different studies.
Compare with care: the assays were run in different laboratories. “And” joins repeats or separate records; there may be more than shown. ± gives the spread as reported.

Structure (SMILES)	target or system	assay	test system	conditions	how to read	quantity	result
O=C(O)c1cc(N2N=C(C(F)(F)F)/C(=C/c3ccc(-c4ccccc4)o3)C2=O)ccc1Cl	platelets	–	–	3 to 10 µM	–	basal cytosolic Ca2+ level	increased
Nc1ccn([C@H]2CC[C@@H](CO)O2)c(=O)n1	HepG2	qPCR	–	20.0 µM, 10 days, 1	reference: untreated	mitochondrial DNA content	0.7 ± 0.2%
COc1c(C)c(OC(C)=O)c(C)c(OC(C)=O)c1C(=O)/C=C/c1ccccc1	FaDu	SRB	–	–	reference: normal over FaDu IC50	selectivity index	0.81
COc1cc(C[C@H]2COC(=O)[C@@H]2Cc2ccc(O)c(OC)c2)ccc1O	neuroblastoma cells	Fura-2 ratiometric	–	concentration not given	–	calcium signalling	no effect
COc1ccc(NC(=O)c2c(Nc3ccccc3)sc(C#N)c2NC(=O)CNc2ccc(Cl)cc2)cc1	HepG2	ELISA	–	IC50, 24 h	–	Bax level	121 ± 13.6 pg/mL
O=C(O)Cc1ccccc1Nc1c(Cl)cccc1Cl	HepG2	item: BiP protein	–	24 h, distribution mode 1	–	point of departure	126 µM
Cc1cc(C)n(-c2nc(-c3ccc(Cl)cc3)c3c(NC(=O)c4ccccc4)nnc-3[nH]2)n1	MDA-MB-231/ATCC	NCI60 SRB	–	10 µM	–	growth percent	74.2%
Cn1cc(-n2cnc3c(NCc4nc5cc(Cl)c(Cl)cc5[nH]4)nc(N4CCOCC4)nc32)cn1	MDA-MB-231	cell viability, CellCounting-Lite	–	0.3048 nM, 37 °C	higher = more viable cells	luminescence signal	470000 a.u. and 462000 a.u. and 429000 a.u.
COc1c(C)c(OC)c(C(=O)/C=C/c2ccccc2)c(OC)c1C	FaDu	SRB	–	–	reference: normal over FaDu IC50	selectivity index	0.97
COc1ccc(-n2nc(C(C)=O)s/c2=N\N=C(/C)c2ccc(NC(=O)c3ccccc3)cc2)cc1	HepG2	–	–	1.25 µM	–	toxicity	74.4%
Cc1cc(C)nc(SCC(=O)Nc2ncc(Cc3cccc(OCc4cn(Cc5ccccc5C)nn4)c3)s2)n1	PC-3M-luc	cell viability, MTS	–	10 µM	–	inhibition	22 ± 1.4%
C=CC1=C(C)c2cc3[n-]c(cc4nc(cc5[n-]c(cc1n2)c(C)c5C=C)C(C)=C4CCC(=O)O)c(CCC(=O)O)c3C.[Zn+2]	SH-SY5Y	RNA-seq, item: AOPEP mRNA	–	5 µM, 5 h	reference: untreated cells	fold change	1.95
CCCN1CCN(c2ccc3[nH]c(-c4ccc5[nH]c(-c6ccc(C(F)(F)F)cc6)nc5c4)nc3c2)CC1	Malme-3M	SRB	–	10 µM, 48 h	–	growth percent	-64.7%
OC(CCN1CCCCC1)(c1ccccc1)C1CC2C=CC1C2 (stereo not drawn)	Toxoplasma gondii	parasite growth	HFF, bradyzoite, glutamine-induced	–	–	EC50	34 µM
O=C(C[C@@H](C(F)F)n1ccc(F)n1)N1CCC(O)(Cn2cnc3c(cnn3-c3ccc(F)cc3)c2=O)CC1	CHP-212 resistant	annexin V/PI flow cytometry	–	1 µM, 48 h	–	apoptotic cells	11.5%
Cn1c(Nc2nc3ccc(C(F)(F)F)cc3s2)nc2cc(C(=O)NCCOCCO)ccc21	SH-SY5Y	RNA-seq, item: TMC6 mRNA	–	5 µM, 5 h	reference: untreated cells	fold change	1.74
CCc1cnc(N2CCC(c3nc(COc4ccc(-n5cnnn5)cc4)cs3)CC2)nc1	HEK293T	RNA-seq, item: CEBPB mRNA	–	10 µM, 6 h	reference: vehicle	log2 fold change	0.758
CC(C)NCC(O)c1ccc(O)c(O)c1 (stereo not drawn)	mouse ventricular cardiomyocytes	–	–	dose not given, 0.379 s	–	sarcomere length	1.8 µm
CCCN1CCN(c2ccc3nc(-c4ccc5nc(-c6cc(OC)ccc6OC)[nH]c5c4)[nH]c3c2)CC1	OVCAR-4	SRB	–	10 µM, 48 h	–	growth percent	81.1%
O=S(=O)(O)O	human neutrophils	anion exchange, substrate, sulfate influx	–	external binding site, with: Cl-	–	Km	13.7 mM
Cn1cc(-c2ccc(-c3cncc(Cl)c3N3CCC4(CCNC4=O)CC3)cc2)cn1	COLO 205	gene expression, microarray, item: CDC20 mRNA	–	concentration not given, 6 h	reference: untreated cells	log2 fold change	-2.05
CCn1cc(-c2cc(Cn3ccoc3=N)cc3c2CCN([C@@H](C)c2cc(OC)ccn2)C3=O)c(C(F)(F)F)n1	HuCCT-1	cell growth, inhibitor	–	120 h	–	EC50	3 µM
Cc1cccc(-c2[nH]c(CNc3ccccc3F)nc2-c2ccc3ncnn3c2)n1	MM1.S pomalidomide-resistant	XTT	–	2 µM	reference: untreated	viability	41%
Cc1cc(NC(=O)c2cccc(NC(=O)/C=C/CN(C)C)c2)ccc1Nc1nccc(-c2cccnc2)n1	HEK293 AP1 reporter cells	AP-1 reporter gene, inhibitor	–	10 µM, 6 h, unit not given, with: PMA	reference: PMA alone	reporter activity	0.368
COc1ccc(NC(=S)N/N=C/c2cccc3cc4ccccc4nc23)cc1	HeLa	PI flow cytometry	–	IC25, 48 h, with: N-acetylcysteine	–	G1 phase cells	55 ± 0.9%
Cc1cnc2ccc3c(c2n1)N1CCC(O)N=C1N3C (stereo not drawn)	BALB/c 3T3	colony forming efficiency	–	5 µM	–	colony number	24 colonies per plate and 25 colonies per plate and 27 colonies per plate

Structure (SMILES)	target or system	assay	test system	conditions	how to read	quantity	result
Cc1cc(Nc2ncc(Cl)c(Nc3ccccc3S(=O)(=O)C(C)C)n2)c(OC(C)C)cc1C1CCNCC1	CLB-GE	phosphoproteomics LC-MS/MS, item: RBM4 phosphorylation	–	200 nM, 60 min	reference: untreated	log2 fold change	-2.41
CC(=O)OCOC(=O)CN(CC(=O)OCOC(C)=O)c1ccccc1OCCOc1ccccc1N(CC(=O)OCOC(C)=O)CC(=O)OCOC(C)=O	C3H10T1/2-derived adipocytes overexpressing Dlat-Flag	–	–	20 µM, 24 h	reference: Dlat overexpression without compound	phospho-AMPKα levels, and phospho-ACC1	inhibited
CCOC(=O)c1nn(-c2cccc(Cl)c2)/c(=N/N=C(\C)c2ccc(NC(=O)c3ccc(Cl)cc3)cc2)s1	MCF7	MTT	–	0.625 µM	–	cytotoxicity	96.1%
Cc1cc(=O)[nH]n1-c1nc(-c2ccc(Cl)cc2)c2c(NC(=O)c3ccccc3)nnc-2[nH]1	MDA-MB-231/ATCC	NCI60 SRB	–	10 µM	–	growth percent	107%
O=C(/C=C/C=C/C=C/C1CCCCC1)NC1=C[C@@](O)(/C=C/C=C/C=C/C(=O)NC2=C(O)CCC2=O)[C@@H]2O[C@@H]2C1=O	A101D	cell growth, CellTiter-Glo	–	78 h	–	GI50	10.6 µM
CC(C)(c1ccc(O)cc1)c1ccc(O)cc1	HepG2 spheroids	Hoechst flow cytometry	–	1 µM, 24 h	–	G2 phase cells	20.7 ± 4.07%
CCCNC(=O)[C@H]1O[C@@H]1C(=O)N[C@H](C(=O)N1CCC[C@H]1C(=O)OC)[C@@H](C)CC	MCF-10A	MTT	–	72 h	reference: dark EC50 over light EC50	phototoxicity index	1
COC1=CC(=O)C=C(OC)C1=O	MCF-10A	CellTiter-Glo	–	concentration not given	reference: normalised luminescence	viability	80.2%
Nc1cccc2c1C(=O)N(C1CCC(=O)NC1=O)C2=O (stereo not drawn)	RPMI-8226	flow cytometry, item: CD127	–	concentration not given	reference: comparator compound alone	surface marker level	188%
CCn1cc(-c2cc(Cn3ccnc3)cc3c2CCN([C@H](c2cc(OC)ccn2)C2CC2)C3=O)c(C(F)(F)F)n1	SNU1066	cell growth	–	120 h	–	EC50	> 30 µM
CC/C(=N\NC(=O)C(C)Nc1ccccc1)c1ccc(O)c(C)c1O (stereo not drawn)	SK-OV-3	Western blot, item: phospho-YAP	–	10 µM, 6 h, 2D culture, unit not given	reference: total YAP	protein level	0.39 ± 0.14
N#Cc1ccc(C[C@H](NC(=O)c2cc3ccc(F)cc3[nH]2)C(=O)N2CCc3ccccc32)cc1	human neutrophils	calcium mobilization, agonist	–	–	–	EC50	> 50 µM
COc1cnc2cccc(N3CCc4c(cc(Cn5ccnc5C)cc4-c4cn(C)nc4C(F)(F)F)C3=O)c2c1	COV362	cell growth, inhibitor	–	120 h	–	EC50	15.7 µM
Cc1cc(C)nc(SCC(=O)Nc2ncc(Cc3cccc(OCc4cn(Cc5ccc(OCCN6CCOCC6)cc5)nn4)c3)s2)n1	PC-3M-luc	colony formation, colony forming	–	10 µM	–	inhibition	8.7 ± 7.8%
CN(C)C(=O)c1cc2cnc(Nc3ccc(N4CCNCC4)cn3)nc2n1C1CCCC1	human neutrophils	–	–	1 to 10 µM, with: fMLF	–	PKA activity	increased
Cn1cc(Nc2nccc(-c3ccc4c(c3)CN(C3COC3)CC[C@H]4NC(=O)c3cn(C(C)(C)C)nn3)n2)cn1	mouse splenic B cells	item: 3-phosphoinositide biosynthesis	–	30 mg/kg, IgD-activated in vivo	reference: vehicle, direction not given	pathway activation z-score	1.09
NC1(c2ccc(-c3nc4ccn5c(=O)[nH]nc5c4cc3-c3ccccc3)cc2)CCC1	MDA-MB-468	flow cytometry, PI staining	–	EC60 concentration, 72 h, DMSO 22.2	–	cells in S phase	23.7%
COc1cc(N2CCC(N3CCN(C)CC3)CC2)ccc1Nc1ncc(Cl)c(Nc2ccccc2P(C)(C)=O)n1	NCI-H2228 (EML4-ALK variant 3)	cell viability	–	–	–	Emax	38.4%
Nc1ncnc2c1ncn2[C@@H]1O[C@H](CO)[C@@H](O)[C@H]1O	activated human T cells	–	–	concentration not given	reference: DMSO	T cell proliferation	34.4% and 12.5% and 17% and 31.3% and 24.2%
C[C@H]1Oc2cc(cnc2N)-c2c(nn(C)c2C#N)CN(C)C(=O)c2ccc(F)cc21	NCI-H2228 (EML4-ALK variant 3)	cell viability	–	–	–	Emax	33.2%
COCCOC(=O)C1=C(C)NC(C)=C(C(=O)OC/C=C/c2ccccc2)C1c1cccc([N+](=O)[O-])c1 (stereo not drawn)	Toxoplasma gondii	parasite growth	HFF, bradyzoite, glutamine-induced	–	–	EC50	6.53 µM
O=C(Nc1nnc2n3c(nc(-c4ccc(Cl)cc4)c1-2)SCC3=O)c1ccccc1	MDA-MB-231/ATCC	NCI60 SRB	–	10 µM	–	growth percent	86.1%
Cc1ccc(NC(=O)[C@H]2CCCN(C(=O)c3c(C)cccc3F)[C@H]2c2ccc(NC3CCCC3)cc2)cc1C(F)(F)F	human peripheral blood neutrophils	flow cytometry FSC/SSC	–	1 µM, with: C5a 100 ng/mL, MPO-ANCA immune complex	reference: unstimulated neutrophils	neutrophil swelling	1.24 fold change and 1.85 fold change and 1.21 fold change and 1.42 fold change
CC(=O)c1nn(-c2ccc(Cl)cc2)/c(=N/N=C(\C)c2ccc(NC(=O)c3ccccc3)cc2)s1	MCF7	–	–	0.625 µM	–	toxicity	88.4% and 96.2%
C#C[C@@]1(O)[C@@H](CO)O[C@@H](n2cc(Br)c3c(N)ncnc32)[C@@H]1O	Malme-3M	SRB	–	NCI-60 screen	–	TGI	14.1 µM and 12.2 µM
